# Experimental data collected from several papers.
# Numbered parts are unrelated; each lists some results of a single study.
# Chain of UniProt P48730 (whole entry, looked up): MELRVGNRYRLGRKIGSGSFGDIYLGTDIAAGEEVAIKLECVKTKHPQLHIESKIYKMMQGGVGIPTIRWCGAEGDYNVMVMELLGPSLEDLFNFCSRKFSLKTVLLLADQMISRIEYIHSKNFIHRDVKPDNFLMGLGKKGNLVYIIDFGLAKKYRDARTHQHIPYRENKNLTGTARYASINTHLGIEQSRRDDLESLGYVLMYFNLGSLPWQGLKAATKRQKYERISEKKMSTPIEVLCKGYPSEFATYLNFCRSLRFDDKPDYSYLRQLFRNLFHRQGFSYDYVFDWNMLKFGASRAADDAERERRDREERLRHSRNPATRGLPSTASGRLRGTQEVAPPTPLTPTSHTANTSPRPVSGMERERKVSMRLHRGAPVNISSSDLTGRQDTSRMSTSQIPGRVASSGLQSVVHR

# Block 1 — technique: EMSA with sequencing; form: double-stranded DNA, one strand shown; medium: in vitro; tested at: 10 and 20 nM; reference: negative control set to 0; direction: higher = stronger binding
# Target: Hepatocyte nuclear factor 3-alpha (Foxa1, Mus musculus, UniProt P35582, residues 1-468, full length assumed)
# Notes: whole designed probe, mean of two concentrations, ends assumed
# All sequences stand within: GTGAGCGGTGCCCATTGATGGGGAAC … TTTCACTGGGATCGTGGGGAC
# Construct (chain): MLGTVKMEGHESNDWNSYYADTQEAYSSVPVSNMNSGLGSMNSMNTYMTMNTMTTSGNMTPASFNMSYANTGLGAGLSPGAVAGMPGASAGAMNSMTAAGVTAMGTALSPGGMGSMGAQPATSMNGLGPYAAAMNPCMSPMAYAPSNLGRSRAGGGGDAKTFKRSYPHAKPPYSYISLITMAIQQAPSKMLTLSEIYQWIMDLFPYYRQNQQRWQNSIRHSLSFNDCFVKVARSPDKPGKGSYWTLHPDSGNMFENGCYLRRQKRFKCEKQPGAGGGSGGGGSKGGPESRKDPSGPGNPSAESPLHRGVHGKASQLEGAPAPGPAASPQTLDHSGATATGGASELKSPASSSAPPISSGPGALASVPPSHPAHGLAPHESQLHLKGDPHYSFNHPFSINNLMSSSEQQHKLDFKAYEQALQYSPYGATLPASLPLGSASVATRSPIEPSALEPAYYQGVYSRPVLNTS
Oligonucleotide,normalised bound fraction [ratio]
ATGATCCAATTAAAAACAAAACAACAGCAACAACAAAAAAACAGACCTGGAAAACTTACTACACAGGCTCTGTGTAGTACGACAGAAAAGAAAAGTAAACAAGAATTTTTTAAAGGCATATAGGACTAGATATATGTAATTTGTTTTCTGAAATCCAACTCTTTCTTGTCCCTTTAGAAACATCTTCTCTATC,0.484
TAAGTTTGTCTTTTCTAATGAAGAAAAAAAAGAGTTTGAGAAAGGAACGATACCAATCTATGATGATCCATCAGCATCGCATCCCAGCCTGTGTAAACATGAAGTGAAAGGGACAGGGAGAAGCCAGGGCCAGAAAGTGCATTTAAACCAGATGGTTCAGTCACAGCGCTGGCCTTAAGTGTCTTACCCAGCA,0.394
GAAATGAGTCAGCTTAATCAACTGAAATTCGCATTTGCATAGTTCTCGAGGCTAGAAGTTCCAGACCAGGACACAGTGAGGAGGCAGCAGTCTGCAATCTAGGAAGAGAGCCCTCACCAGGAAATCAGTCAGCTGTTCTCATTTAATGTTCTCACTTTAGAAGATCATGCAAGGGACAAAATCTCCAGAATCT,-0.05
GTCAATTACGTGGGAAATAAAGATAAGGCAAATGCACTTGGTTCTCTGAACTATTCTGACATTAGAAGAAATGCCAAGTCTGGAGATATCTGCTGTTTACATTTCACAATAACCTAATCATGCATTTGCAGCTTTCTGGAGCAAAACACTAACTGTTCTCCAAACAGCCACCTGACAATCTAAGGCTGAAACA,0.331
CACTCATAGTCTTGCTATCCTTCATATACAGAGATGACCCTCCCAAGCCTAAAATCAACAGGGGGAGGCATAGAGCTGTCCTTCTGGCTCTAAAGATTGCTTTACCATCATCCACGCCCATTCTTAGTCCAGCATGTGAGAGCCAGTGTGAAGTGAGCAGAATATGGCATAAGTATGGAGTCATACATCCTTA,0.0287
CACACACACTCACACACACAATCAAGAAACCATCAAACAAAGCTCAGAAACATTTCAAACATAAGATCATCTTTTACTTTACTTTTTTGTTGCATGTTTACTTTGCCTTCTGGAAATATTGCACAATCTATTAGCTTTTTCTCTTTAGATGTTTGAAGGATACAGAAGGTACTACTAACTTAAAAAAAAAAAC,0.327
AAAGTGAGACATGCTTTATGCTTTAAGAGGGCACACATTGGAGTGTGATAAGCTTCAACTTGGGGAGAATGAGCTCTACTCTGCTCTATTTCTGTTTACTTTGTACTAAATAATTAGACAATGGCCAACATGGTCTGAAAAAAGTCAAGTAAAGAGATATCTTTCTAGCCTGAAACAAAATATTCTTAGATTT,0.484
GAGCAGGTGGGATAGGGCACCAGCTTTGTGATTATGCTGGTTAGATTACAGTTGTGTCCTGCCACTGTTAATAATGGCAAATGAAACAAACAATGTAATCTCAGACTTCTTTTTGTTTTTCATAATCTGAGAAGGTGGTTAGTTCTTAGGTCAGGTCAGTTTCACCAATCTAAGGAGTTTTTTTCCTATTTTT,0.0698

# Block 2 — technique: aptamer microarray, sandwich; form: DNA with 2'F-ANA; medium: in vitro; tested at: 200 nM; together with: Cy3 exosite-II aptamer, 400 nM; direction: higher = stronger binding; oligonucleotide: GGTTGGTGTGGTTGG
# Target: Prothrombin, mature alpha-thrombin (F2, Homo sapiens, UniProt P00734)
# Notes: whole 15-mer aptamer, many near background
Modification,mean fluorescence intensity [a.u.]
2'F-ANA at 1 3 4 5 6 7 11 13 14 15,61.1
2'F-ANA at 1 2 4 5 6 8 9 11 13,186
2'F-ANA at 4 6 7 9 11 14,71.5
2'F-ANA at 1 2 4 5 8 9 12 15,105
2'F-ANA at 4 5 6 11 12 14,42.4
2'F-ANA at 1 2 11 13 14 15,48.7
2'F-ANA at 1 3 7 8 9 12 14 15,135
2'F-ANA at 5 6 11,64

# Mixed results
Molecule,target or system,test,test system,setting,how to read,endpoint,result
"CCT3 (Homo sapiens, UniProt P49368)","CCT8 (Homo sapiens, UniProt P50990)",cross-linking MS,,hits only,,interaction screen,cross-linked
O=C(Nc1cccc(Nc2cc(Nc3cccc(C(F)(F)F)c3)ncn2)c1)C1CC1,"Casein kinase I isoform delta (CSNK1D, Homo sapiens, UniProt P48730)","enzyme activity, inhibitor",,0.5 µM,reference: control,remaining activity,98.9%
"PSMA7 (Homo sapiens, UniProt O14818)","PSMA4 (Homo sapiens, UniProt P25789)",cross-linking MS,,hits only,,interaction screen,cross-linked
"PLXNB2 (Homo sapiens, UniProt O15031)","TBCD (Homo sapiens, UniProt Q9BTW9)",cross-linking MS,cell fractions,together with: DSSO,,cross-linked residues,T244 to T877
